Published values gathered from unrelated publications.
Each numbered part is a random draw from the data of one study; scales do not carry over between parts. Changes are numbered by the printed parent chain.

Study 1 — technique: RNA Bind-n-Seq; molecule type: RNA; medium: in vitro; concentration: 365 nM; baseline: no-protein control; reading: higher = stronger binding
Target: RNA binding protein fox-1 homolog 2, RRM domain, GST-SBP tag (RBFOX2, Homo sapiens, UniProt O43251-10, residues 100-194)
Setting: natural RNA segment, single round, ends assumed
All sequences stand within: GGGAGUUCUACAGUCCGACGAUC … UGGAAUUCUCGGGUGCCAA
Construct (chain): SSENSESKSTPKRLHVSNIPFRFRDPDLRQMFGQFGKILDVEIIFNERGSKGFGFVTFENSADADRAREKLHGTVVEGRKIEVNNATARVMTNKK
Oligonucleotide	RBNS enrichment (R)
GCAUCUAUGCUCUGUUACAAGUGCCUUAGCAGGAGUCAGCAGCACCCUCCAGGUGCCCCUUGCCACACUGAAUGUGGGAAAGUGUGCUGUGGCUACUUCGUGGUCAGAGU	0.318
AUGCCUCCUGAUGGAUAUAAUUUUGUGAUUGUAUUUAAAAGUUGAAUAAAUCACACCAGCUUCCUGAAAAUGUUCAUAAUGCAUCUUUUGGAAAACAAAUACAUGCCUAC	0.539
UGUUCCUGGGGAAGCUGGGGACUUGGGAAGUGAUGGGUGUGUCAUGUUGCGUGUGUCUGUCUGUGAGCCUUUCACACCUGUGCUGGCGCUGGAAAAUUAUUUGUGCUCAG	1.79
UAAAACUUCAAGUAUUAAAAUAAUUUGUACAUGUAGAGAGAAAAAUGACUUUUUCAAAAAUAUACAGGGGCAGCUGCCAAAUUGAUGUAUUAUAUAUUGUGGUUUCUGUU	0.619
AAUGGGCAAUCUACUGAACUUCCAGAUCAAUGCUUUGUUGGAAAGUGAUGAAUUUAAGAGAGUUUUAACAUGUCAAAUUUGAAGCCAAUUCAGUAUCCUUAUUUGUUCCA	0.675
GAAAAGUUGAAGGGAAAAUACUGGAAUGCUUCUUCAAAGGUUAAAAAAUAACCGAGUCUUUUGGUAAUUUGACCCCACGUGCUCUCUGGCCCUCAAGCAUGUAACCUCGG	2.12
CAUGAACAUGACUUUCCUAAAGUGGAAGGAUCUGUCCCCACCUUCACCCAGUCCUUAGGACAAGUAGAAAGGGGCAUUCUGGCACUUGGCAUAACCUAUGCCACGAUGGU	0.214
AGUAUAAGUGAUUCUAUCUUGGUCCCACCAAGAGUUUGCCCGAUCUCCACACAUCACCUGUUGUCUCACAAAAAGUAGGGGAACCUUGUCAGUCACAUAGGACAGGAUAU	0.328
CAGUUCUCUUGGCCUCAAAACUCACAAGGUUUUCCCCUAAACCAGCUCCUUGGAGGCUGGCAGGAGCAGAGAGGGGUGUGUGAGGGAGGAGAGCCUGUCUUGUUGGUGGG	0.606
GAACUGCUCAACACACAGAUCUCCUACUCCAUCCAGUCCUGAGGAGCCUUAGGAUGCAGCAUGCCUUCAGGAGACACUGCUGGACCUCAGCAUUCCCUUGAUAUCAGUCC	5.29
CGGCCAGGGCCCGCGGGGGGCACCACCUGUGGACAGCCCUCCUGUCCCCAAGCUUUCAGGCAGGCACUGAAACGCACCGAACUUCCACGCUCUGCUGGUCAGUGGCGGCU	0.148
AGAAAAACAUGAAGCUUGCCCCUCGAGGGAUCUACUCCUGUUUUUCCCGUCAUCUGUUGGCUUCAGGAGGACUGCCAUAAAGUCCCAUUGACAUUUACUCUUAUGUCUUU	0.216

Study 2 — target: CCND3, cyclin fold, Cln2 fusion (human); technique: yeast growth competition, sequencing; medium: yeast; setting: weak parent motif; baseline: not given; reading: higher = stronger binding
Starting sequence: RB1 docking peptide (human); PKPLKKLRFDIEG; partner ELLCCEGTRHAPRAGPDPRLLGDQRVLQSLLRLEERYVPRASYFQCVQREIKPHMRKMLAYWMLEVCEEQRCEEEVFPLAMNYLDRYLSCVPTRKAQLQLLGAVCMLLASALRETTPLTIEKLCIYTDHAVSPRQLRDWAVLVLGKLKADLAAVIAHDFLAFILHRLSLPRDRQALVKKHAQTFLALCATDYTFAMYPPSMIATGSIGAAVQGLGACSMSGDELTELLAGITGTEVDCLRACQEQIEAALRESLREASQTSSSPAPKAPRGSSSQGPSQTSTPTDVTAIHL
Variant	normalised enrichment score
I11D	0.144
I11M	0.062
R8F	0.0193
K2E	0.168
R8Q	0.0348
R8E	0.0236
E12M	0.115
K6N	0.125
P1F	0.0855
P1N	0.0633
P1A	0.15
K2C	0.119
L4W	0.116
K5Q	0.107
L4M	0.2
R8C	0.0934
D10E	-0.0302
K5A L7A	0.0626
D10C	0.0899
L7E	0.0702
F9A	0.157
E12Q	0.112
P3K	0.112
L4S	0.112
D10W	0.0582

Study 3 — technique: DHFR PCA, deep sequencing; medium: yeast; together with: (+)-ABA 710 µM; baseline: wild-type fitted maximum; reading: higher = stronger binding
Target: ABI1, truncated, D143A, DHFR fusion (Arabidopsis thaliana)
Setting: methotrexate growth selection, single substitutions
Starting sequence: PYL1, truncated, DHFR fusion (Arabidopsis thaliana); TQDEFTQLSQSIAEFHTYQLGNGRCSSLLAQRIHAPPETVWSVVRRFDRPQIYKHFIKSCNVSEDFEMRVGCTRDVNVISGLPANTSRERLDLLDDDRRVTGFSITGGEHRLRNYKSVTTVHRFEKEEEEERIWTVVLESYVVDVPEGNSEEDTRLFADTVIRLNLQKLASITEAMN; partner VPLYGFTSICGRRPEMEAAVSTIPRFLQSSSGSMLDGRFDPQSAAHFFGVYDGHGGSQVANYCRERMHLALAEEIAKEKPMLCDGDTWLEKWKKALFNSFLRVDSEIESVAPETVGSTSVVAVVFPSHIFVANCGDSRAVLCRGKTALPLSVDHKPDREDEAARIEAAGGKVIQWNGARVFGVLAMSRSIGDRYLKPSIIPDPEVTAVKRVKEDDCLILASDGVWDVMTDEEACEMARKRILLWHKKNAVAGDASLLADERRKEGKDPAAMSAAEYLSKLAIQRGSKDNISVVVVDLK
Variant	relative binding score [%]
D159T	76
I57L	99.1
T17F	88.3
F124T	103
L138F	107
D97Y	95.1
F56N	22.2
S150Y	76
T160C	99.9
S150I	85.3
R155I	97.8
V121Y	-24.7
E109G	96.2
S104F	57.7
K168G	99.6
S42Y	89.9
F47G	-2.72

Study 4 — technique: RNA Bind-n-Seq; molecule type: RNA; medium: in vitro; concentration: not given; setting: RNA with constant flanks, ends assumed; baseline: input RNA pool; reading: higher = stronger binding
Target: RING finger protein unkempt homolog, zinc fingers 1-6, GST-SBP tag (UNK, Homo sapiens, UniProt Q9C0B0, residues 30-357)
All sequences stand within: GGGAGUUCUACAGUCCGACGAUC … CAACAGAGGAUUGAGCAUCA
Construct (chain): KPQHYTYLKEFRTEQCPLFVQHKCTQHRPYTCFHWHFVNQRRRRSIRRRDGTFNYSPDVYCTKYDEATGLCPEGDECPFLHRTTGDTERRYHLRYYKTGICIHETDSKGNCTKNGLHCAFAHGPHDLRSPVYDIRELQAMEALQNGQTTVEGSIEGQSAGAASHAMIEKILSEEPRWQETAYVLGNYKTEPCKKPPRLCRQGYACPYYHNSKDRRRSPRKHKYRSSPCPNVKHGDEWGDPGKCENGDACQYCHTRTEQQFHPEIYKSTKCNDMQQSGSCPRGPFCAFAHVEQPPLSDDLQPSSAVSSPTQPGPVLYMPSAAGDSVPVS
Oligonucleotide	bound/input enrichment [ratio]
CGGCCCAUGCAGCAGAUGCAACCCACUGCUCCCAGGAACAGUAAUCUCCGUGAACUCCCCACCGCACCUUCACAUGUUUUGGAGAUGAGUGGUAACCGAUGCUCCUCUACACCUGUUGCU	0.375
UGCCCUUCCAGUAAUAGUUAAUUUUGAAUAAUUAUGUAUUGUCUGAAAAGCAAUGAGUGCCCGUUUUUGUUUUCUUUGUUUAAAAAAAAAAACAAAAAUCCCCACAAACGUUUGUUGUUU	3.66
AAAAGUGAAAUAACAUUAAAGGUGAAUGUGAGGCUUCUACUUUUAUCCAAAAGGAGCUAUAUCCGCCCGGCUGUUUCUGAUAUCCAAUCAUUGGUUUAACAAUAAAGGCAAUUUGUUUAA	0.229
GUCUAUCUUAAUCUGGUGCUGGACUAUGUUCCGGAAACAGUAUACAGAGUUGCCAGACACUACCGUCGAGCCAAACAGACGCUCCCUGUGAUUUAUGUCAAGUUGUAUAUGUAUCAGCUG	0.0485
CCGCUUUUUGCCGCGAGCCGACCGGUCCCGUCAUGCCGACCCGCAGUCCCAGCGUCGUGAUCCGCGAUGAUGAACCAGGUUAUGACCUAGAUUUGUUUUGUAUACCUAAUCAUUAUGCCG	0.424
CAGUCCUGCGUUUCCUCCCUAAAUUCUAUUUUGUUAUUUGGUUUUCUUUACUCUGGUUUUCCGUAACAGGAUCACGUAUUAAAAUUUGCUGUUAAUUAAAGUUUACCUUUUGAUUUUACA	0.415
GCAGAUUAUAAUGGCAGACUGGCGGCAGAAAUAGAUGAUAGAAAGCAACUCACCCGAAUGUCCGCAGAUUUUCUUCGUUGUCAAAAGGAAGCCCUUGCAGAGAAAGAACAUAAAUUGGAA	0.788
UUGCUGUCUAUUUGUUCCCUUUUGACAGACUGCAACCCUGCGGAUCCUCUGGUUGGAAGCACCGCCACUCAGUAUUUGACCAACAGAGCAGAACACGACAGGAUAGCCAGACAGUGGACC	0.142
GAAAUGAGGGCAAGAGCAAUUAAGGCUCUCAUGAAAGCUGGUGAUAUAAAAAAGCCAGUGCCGUUUUCUGACUUGAAUAUUAUGUGUGUUUGAAUGAAGCCAUGUCAUAUAAUUUUGUAU	0.22
GUUUUAAAAAUGAACUUCUCCCGCUACACAGAAGUAACAAAUAUGGUAGUCAGUUUUGUAUUCCGAAAUGUAUUGGUAGCAGGGAUGUUUUCAUAAUUUUCAGAGAUUAUGCAUUCUUCA	0.251
CUACCUAACCCUUUCUUAUUUGUAUUUGUUUUAGUAUUGUGAAGUUGUGUUAAAUAGUACCCGCCCGAAAUACAAAUUUCUGGUUAUCAUUUCUCUUCCCUGUGGCACUUGACAUUUUAA	2.72

Single results of other studies
Substance	target	test	system	conditions	how to read	endpoint	result
PhoQ, residues 284 288 289 292 302 303 NLGVHL	PhoP, residues 12 14 15 18 19 QWHVF (Escherichia coli, UniProt P23836)	Sort-seq, item: YFP reporter	E. coli	PhoQ-PhoP variant library, together with: 10 µM Mg2+	baseline: high Mg2+ state, higher = stronger signaling	fold induction	9.13

Excerpt of the above (study 2):
Variant	normalised enrichment score
R8E	0.0236
E12M	0.115
K6N	0.125
P1F	0.0855
P1N	0.0633
P1A	0.15
K2C	0.119
L4W	0.116
K5Q	0.107
L4M	0.2
